# Results from different studies.
# Protocols differ between the studies behind these lines. Several values in a cell are separate wells, animals, samples, runs or records.
# NT5E: 5'-nucleotidase (NT5E, Homo sapiens, UniProt P21589)
# Sequence of UniProt P21589 (whole entry, looked up): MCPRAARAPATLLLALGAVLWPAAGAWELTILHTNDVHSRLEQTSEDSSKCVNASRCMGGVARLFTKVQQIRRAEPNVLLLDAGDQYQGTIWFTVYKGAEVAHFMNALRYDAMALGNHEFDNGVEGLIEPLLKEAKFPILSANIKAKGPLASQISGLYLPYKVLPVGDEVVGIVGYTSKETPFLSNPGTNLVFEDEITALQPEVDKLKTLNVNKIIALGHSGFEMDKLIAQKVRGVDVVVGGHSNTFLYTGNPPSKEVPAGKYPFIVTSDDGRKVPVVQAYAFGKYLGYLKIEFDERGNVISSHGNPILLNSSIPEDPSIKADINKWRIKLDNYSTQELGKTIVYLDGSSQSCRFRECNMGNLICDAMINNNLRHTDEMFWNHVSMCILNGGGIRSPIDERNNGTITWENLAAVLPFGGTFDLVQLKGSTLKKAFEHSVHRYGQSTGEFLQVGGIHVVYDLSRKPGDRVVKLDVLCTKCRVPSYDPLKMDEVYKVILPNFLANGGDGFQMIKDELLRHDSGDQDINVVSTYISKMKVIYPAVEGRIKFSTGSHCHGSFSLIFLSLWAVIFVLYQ
# SLC22A11: Solute carrier family 22 member 11 (SLC22A11, Homo sapiens, UniProt Q9NSA0)
# Sequence of UniProt Q9NSA0 (whole entry, looked up): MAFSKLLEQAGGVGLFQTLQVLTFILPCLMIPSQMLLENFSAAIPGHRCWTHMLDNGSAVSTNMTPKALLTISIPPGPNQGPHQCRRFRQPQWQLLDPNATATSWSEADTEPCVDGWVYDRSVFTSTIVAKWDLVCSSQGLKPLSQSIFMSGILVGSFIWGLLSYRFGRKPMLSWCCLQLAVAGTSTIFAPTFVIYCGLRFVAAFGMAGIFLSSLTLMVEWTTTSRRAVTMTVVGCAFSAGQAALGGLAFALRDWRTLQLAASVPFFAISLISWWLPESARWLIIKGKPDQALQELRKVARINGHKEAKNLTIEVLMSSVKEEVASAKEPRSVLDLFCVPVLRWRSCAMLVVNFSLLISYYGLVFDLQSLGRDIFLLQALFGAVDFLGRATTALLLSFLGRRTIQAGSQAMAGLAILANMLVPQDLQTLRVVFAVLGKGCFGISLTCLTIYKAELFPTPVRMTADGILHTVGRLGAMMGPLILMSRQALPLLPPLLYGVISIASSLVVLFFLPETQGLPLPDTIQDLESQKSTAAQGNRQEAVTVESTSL
# rep main protease: Replicase polyprotein 1ab, main protease (rep, Porcine epidemic diarrhea virus, UniProt P0C6Y4)
# AMY2: Pancreatic alpha-amylase (AMY2, Sus scrofa, UniProt P00690)
# Sequence of UniProt P00690 (whole entry, looked up): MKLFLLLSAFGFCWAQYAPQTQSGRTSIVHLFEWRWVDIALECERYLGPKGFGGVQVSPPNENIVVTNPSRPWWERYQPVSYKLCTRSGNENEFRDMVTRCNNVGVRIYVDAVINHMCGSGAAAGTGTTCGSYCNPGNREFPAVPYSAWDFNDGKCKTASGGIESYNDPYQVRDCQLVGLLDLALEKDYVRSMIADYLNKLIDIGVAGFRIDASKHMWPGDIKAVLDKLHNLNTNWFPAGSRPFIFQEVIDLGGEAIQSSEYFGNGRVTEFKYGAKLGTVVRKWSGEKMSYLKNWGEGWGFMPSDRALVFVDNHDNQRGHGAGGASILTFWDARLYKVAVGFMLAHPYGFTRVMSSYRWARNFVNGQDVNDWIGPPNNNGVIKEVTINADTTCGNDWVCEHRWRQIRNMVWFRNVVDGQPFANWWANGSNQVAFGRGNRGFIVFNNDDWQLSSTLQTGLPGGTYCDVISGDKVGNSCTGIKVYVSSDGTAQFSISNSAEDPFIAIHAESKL
# CDK7 with cyclin H: Cyclin-dependent kinase 7, with cyclin H (CDK7, Homo sapiens, UniProt P50613)
# Sequence of UniProt P50613 (whole entry, looked up): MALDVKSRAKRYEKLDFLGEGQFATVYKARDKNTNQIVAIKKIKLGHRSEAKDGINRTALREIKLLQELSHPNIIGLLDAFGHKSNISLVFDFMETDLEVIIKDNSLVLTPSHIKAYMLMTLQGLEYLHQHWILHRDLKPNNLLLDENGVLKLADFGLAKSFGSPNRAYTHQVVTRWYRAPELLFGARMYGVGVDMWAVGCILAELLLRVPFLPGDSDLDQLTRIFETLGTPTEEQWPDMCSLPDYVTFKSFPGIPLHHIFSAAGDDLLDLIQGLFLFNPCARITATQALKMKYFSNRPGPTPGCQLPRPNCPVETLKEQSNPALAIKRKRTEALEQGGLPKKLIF
# PIP4K2C: Phosphatidylinositol 5-phosphate 4-kinase type-2 gamma (PIP4K2C, Homo sapiens, UniProt Q8TBX8)
# Sequence of UniProt Q8TBX8 (whole entry, looked up): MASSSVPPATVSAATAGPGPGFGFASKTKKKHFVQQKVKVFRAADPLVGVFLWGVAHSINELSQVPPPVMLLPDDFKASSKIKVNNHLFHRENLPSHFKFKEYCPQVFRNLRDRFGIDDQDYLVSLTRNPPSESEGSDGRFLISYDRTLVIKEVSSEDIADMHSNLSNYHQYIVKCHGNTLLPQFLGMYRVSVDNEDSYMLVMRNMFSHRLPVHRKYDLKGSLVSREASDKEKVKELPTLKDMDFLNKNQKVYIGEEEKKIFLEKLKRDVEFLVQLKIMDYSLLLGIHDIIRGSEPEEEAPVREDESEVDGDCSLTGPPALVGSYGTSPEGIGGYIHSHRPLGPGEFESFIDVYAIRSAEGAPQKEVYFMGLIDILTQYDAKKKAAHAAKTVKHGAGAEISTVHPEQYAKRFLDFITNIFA
# Sequence of UniProt Q9NUW8 (whole entry, looked up): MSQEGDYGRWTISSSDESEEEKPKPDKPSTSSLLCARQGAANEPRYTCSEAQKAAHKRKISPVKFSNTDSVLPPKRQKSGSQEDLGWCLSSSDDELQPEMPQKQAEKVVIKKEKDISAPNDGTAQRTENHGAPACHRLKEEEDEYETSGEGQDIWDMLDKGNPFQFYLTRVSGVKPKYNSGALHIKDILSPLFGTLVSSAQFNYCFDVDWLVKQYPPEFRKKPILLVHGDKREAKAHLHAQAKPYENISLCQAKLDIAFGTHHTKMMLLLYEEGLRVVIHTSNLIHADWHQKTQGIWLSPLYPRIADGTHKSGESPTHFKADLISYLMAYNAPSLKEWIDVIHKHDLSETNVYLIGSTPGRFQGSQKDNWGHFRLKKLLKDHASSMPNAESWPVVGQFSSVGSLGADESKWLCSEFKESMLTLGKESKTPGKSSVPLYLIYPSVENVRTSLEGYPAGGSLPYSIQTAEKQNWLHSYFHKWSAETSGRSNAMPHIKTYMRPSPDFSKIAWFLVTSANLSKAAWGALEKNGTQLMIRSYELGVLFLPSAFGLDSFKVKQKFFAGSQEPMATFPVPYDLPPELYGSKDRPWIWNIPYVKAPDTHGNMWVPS
# Sequence of UniProt Q96L34 (whole entry, looked up): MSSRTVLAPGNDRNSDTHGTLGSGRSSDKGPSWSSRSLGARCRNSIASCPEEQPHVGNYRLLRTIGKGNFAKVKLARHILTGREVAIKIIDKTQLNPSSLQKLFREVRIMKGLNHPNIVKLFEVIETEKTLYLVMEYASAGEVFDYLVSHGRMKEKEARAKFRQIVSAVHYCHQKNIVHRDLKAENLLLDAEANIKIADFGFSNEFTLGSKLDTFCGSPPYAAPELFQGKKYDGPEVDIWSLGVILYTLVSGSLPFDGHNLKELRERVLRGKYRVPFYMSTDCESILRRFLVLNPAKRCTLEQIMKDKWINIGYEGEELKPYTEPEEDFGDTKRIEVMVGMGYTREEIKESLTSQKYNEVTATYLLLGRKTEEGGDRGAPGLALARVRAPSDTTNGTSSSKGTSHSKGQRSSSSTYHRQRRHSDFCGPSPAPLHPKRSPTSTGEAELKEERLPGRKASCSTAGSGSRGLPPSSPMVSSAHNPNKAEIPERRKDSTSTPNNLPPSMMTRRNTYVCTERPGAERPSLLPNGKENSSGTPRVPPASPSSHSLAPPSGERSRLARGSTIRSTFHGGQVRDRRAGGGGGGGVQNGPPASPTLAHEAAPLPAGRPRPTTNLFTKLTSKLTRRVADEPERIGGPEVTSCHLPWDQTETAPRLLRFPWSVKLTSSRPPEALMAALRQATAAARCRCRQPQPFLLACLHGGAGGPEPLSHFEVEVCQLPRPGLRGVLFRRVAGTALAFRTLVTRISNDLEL
# Sequence of UniProt P27338 (whole entry, looked up): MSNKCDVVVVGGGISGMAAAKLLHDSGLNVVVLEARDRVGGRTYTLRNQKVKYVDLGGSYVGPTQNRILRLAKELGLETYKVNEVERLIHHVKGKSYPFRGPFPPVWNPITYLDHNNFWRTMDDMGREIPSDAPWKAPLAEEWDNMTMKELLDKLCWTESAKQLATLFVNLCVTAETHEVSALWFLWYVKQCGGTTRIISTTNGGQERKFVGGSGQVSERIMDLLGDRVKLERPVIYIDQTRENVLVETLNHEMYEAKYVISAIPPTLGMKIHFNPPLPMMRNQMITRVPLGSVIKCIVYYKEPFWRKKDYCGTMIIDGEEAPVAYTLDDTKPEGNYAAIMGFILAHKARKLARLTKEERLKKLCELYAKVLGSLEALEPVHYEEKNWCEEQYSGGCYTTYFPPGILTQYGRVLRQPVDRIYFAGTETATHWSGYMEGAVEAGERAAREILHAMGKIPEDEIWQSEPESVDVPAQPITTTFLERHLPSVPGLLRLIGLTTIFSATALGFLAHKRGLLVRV
# Sequence of UniProt P24530 (whole entry, looked up): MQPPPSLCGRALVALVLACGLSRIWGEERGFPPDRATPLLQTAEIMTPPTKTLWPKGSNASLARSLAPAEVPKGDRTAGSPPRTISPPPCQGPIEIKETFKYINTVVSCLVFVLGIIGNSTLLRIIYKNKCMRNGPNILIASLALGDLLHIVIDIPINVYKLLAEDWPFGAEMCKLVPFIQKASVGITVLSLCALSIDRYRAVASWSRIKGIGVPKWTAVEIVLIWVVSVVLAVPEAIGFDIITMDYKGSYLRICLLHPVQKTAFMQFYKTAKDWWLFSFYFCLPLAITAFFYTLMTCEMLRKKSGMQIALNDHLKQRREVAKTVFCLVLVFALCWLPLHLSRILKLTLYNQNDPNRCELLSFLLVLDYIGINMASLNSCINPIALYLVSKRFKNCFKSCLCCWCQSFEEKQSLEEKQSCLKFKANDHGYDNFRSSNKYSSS
Compound,target,observed,action,method,tested at,inhibition
COc1ccc(NC(=O)c2sc3nc(-c4ccccc4)cc(C(F)(F)F)c3c2N)cc1,NT5E,enzyme activity,inhibitor,HPLC,10 µM,92%
Cc1ncc([N+](=O)[O-])n1C(=NO)c1ccccc1C(F)(F)F,"MARK4 (Homo sapiens, UniProt Q96L34)",enzyme activity,inhibitor,,10 µM,98.7%
CCCCc1nc(Cl)c(CO)n1Cc1ccc(-c2ccccc2-c2nn[nH]n2)cc1,SLC22A11,transporter uptake,inhibitor,,25 µM,50 to 90%
CCOC(=O)c1ccc(NC(=O)CCSc2nc(C)cc(C)c2C#N)cc1,NT5E,enzyme activity,inhibitor,,10 µM,-5%
CN1CC(Oc2cnc(C#N)cc2-c2ccn3nc(NC(=O)C4CC4)cc3c2)C1,"PRKD1 (Homo sapiens, UniProt Q15139)",enzyme activity,inhibitor,,1 µM,3%
COc1cc(CNC(=O)c2ccc(Cl)c(F)c2)cc(Br)c1OC,"Replicase polyprotein 1ab, papain-like protease (rep, Porcine epidemic diarrhea virus, UniProt P0C6Y4)",enzyme activity,inhibitor,FRET,10 µM,5.83%
COc1ccc(NC(=O)CSc2nc(-c3ccccc3)cc(C(F)(F)F)c2C#N)cc1,NT5E,enzyme activity,inhibitor,HPLC,10 µM,85%
COc1cc(CNC(=O)c2cccc(CCl)c2)cc(Br)c1OC,rep main protease,enzyme activity,inhibitor,FRET,10 µM,31.8%
CC[C@H](C)[C@H](NC(=O)[C@H](CCC(N)=O)NC(=O)[C@@H](NC(=O)[C@H](CCSC)NC(=O)[C@H](CCCCN)NC(=O)[C@H](CO)NC(=O)[C@@H](NC(=O)[C@H](CCSC)NC(=O)[C@H](CC(C)C)NC(=O)[C@H](CC(N)=O)NC(=O)[C@@H](NC(=O)[C@@H](NC(=O)[C@H](CO)NC(=O)[C@H](CC(C)C)NC(=O)[C@H](C)NC(=O)[C@H](CCCNC(=N)N)NC(=O)[C@H](CCC(=O)O)NC(=O)[C@H](Cc1ccc(O)cc1)NC(=O)[C@H](Cc1ccccc1)NC(=O)[C@H](C)NC(=O)[C@H](CC(N)=O)NC(=O)[C@@H](N)CCCCN)[C@@H](C)CC)[C@@H](C)CC)[C@@H](C)O)C(C)C)C(=O)N[C@@H](CC(N)=O)C(=O)N[C@H](C(=O)O)C(C)C,"Cyclin-dependent kinase 5, with p35 (CDK5, Homo sapiens, UniProt Q00535)",enzyme activity,inhibitor,radiometric,1 µM,3%
CCN(O)N=Nc1ccc(S(=O)(=O)Nc2nccs2)cc1,AMY2,enzyme activity,inhibitor,,20 µg/mL,5.26%
COc1ccc(C(=O)NCc2ccc(OC)c(OC)c2)cc1,rep main protease,enzyme activity,inhibitor,FRET,10 µM,28.7%
NC/C(=C\F)COc1cccc(Cn2c(=S)[nH]c(=O)c3[nH]cnc32)c1,"EDNRB (Homo sapiens, UniProt P24530)",ligand displacement,,radioligand,10 µM,< 50%
C[C@@H]1CC[C@@]2(OC1)O[C@H]1C[C@H]3[C@@H]4CC=C5C[C@@H](O)CC[C@]5(C)[C@H]4CC[C@]3(C)[C@H]1[C@@H]2C,CDK7 with cyclin H,enzyme activity,inhibitor,ADP detection,10 µM,19.1%
O=C(NCc1ccc(O)c(O)c1)c1ccc(Br)cc1,rep main protease,enzyme activity,inhibitor,FRET,10 µM,34.1%
CCOC(=O)[C@@]12C[C@@H]1[C@@H](n1cnc3c(NCCO)nc(I)nc31)[C@H](O)[C@@H]2O,"SLC6A2 (Homo sapiens, UniProt P23975)",ligand displacement,,radioligand,10 µM,27%
COc1cc(CNC(=O)c2nccs2)cc(Br)c1OC,rep main protease,enzyme activity,inhibitor,FRET,10 µM,0.51%
CC(=O)O[C@H]1C(=O)[C@@]2(C)[C@H]([C@H](OC(=O)c3ccccc3)[C@]3(O)C[C@H](OC(=O)[C@H](O)[C@@H](NC(=O)c4ccccc4)c4ccccc4)C(C)=C1C3(C)C)[C@]1(OC(C)=O)CO[C@@H]1C[C@@H]2O,CDK7 with cyclin H,enzyme activity,inhibitor,ADP detection,10 µM,24%
Cc1noc(NS(=O)(=O)c2ccc(N=NN(C)O)cc2)c1C,AMY2,enzyme activity,inhibitor,,300 µg/mL,68.4%
CCCCC(=O)Nc1ccc(-c2cnc3ncn(CCC)c(=O)c3c2)cn1,PIP4K2C,binding,,competition with immobilised ligand,0.5 µM,91%
COc1cc2c(cc1OC)C(=O)N(CC1CCN(Cc3ccncc3)CC1)C2,"ache (Electrophorus electricus, UniProt O42275)",enzyme activity,inhibitor,,1 µM,0.39%
CCCCCC(=O)Nc1ccc(-c2ccc3ncn(Cc4ccccc4)c(=O)c3c2)cn1,PIP4K2C,binding,,competition with immobilised ligand,0.5 µM,74.8%
Cc1cccc(N(O)N=Nc2ccc(S(=O)(=O)Nc3onc(C)c3C)cc2)c1,AMY2,enzyme activity,inhibitor,,20 µg/mL,15.8%
COc1cc(CNC(=O)c2c[nH]c3ccccc23)cc(Br)c1OC,rep main protease,enzyme activity,inhibitor,FRET,10 µM,124%
COc1ccc(Cl)cc1-c1cc(=O)[nH]c(=S)n1CC(N)=O,"Myeloperoxidase (MPO, Homo sapiens, UniProt P05164)",enzyme activity,inhibitor,fluorescence,5 µM,97.9%
O=C(Nc1ccc(Cl)c(Cl)c1)c1ccc2c(c1)C(=O)NC2=O,"MAOB (Homo sapiens, UniProt P27338)",enzyme activity,inhibitor,,1 µM,95.7%
CCCN(O)N=Nc1ccc(S(=O)(=O)Nc2cc(C)on2)cc1,AMY2,enzyme activity,inhibitor,,180 µg/mL,47.4%
Cc1cc(-c2ccccc2)c(C#N)c(SCC(=O)Nc2ccon2)n1,NT5E,enzyme activity,inhibitor,,10 µM,4%
Cc1cccc(N(O)N=Nc2ccc(S(=O)(=O)Nc3cc(C)on3)cc2)c1,AMY2,enzyme activity,inhibitor,,300 µg/mL,68.4%
CCCCC(=O)Nc1ccc(-c2ccc3ncn(CCC)c(=O)c3c2)c(F)n1,PIP4K2C,binding,,competition with immobilised ligand,0.5 µM,99.3%
C[C@]12CC[C@@H]3c4ccc(OS(=O)(=O)O)cc4CC[C@H]3[C@@H]1CCC2=O,SLC22A11,transporter uptake,inhibitor,,25 µM,87%
NOCc1ccc(-c2nc3cc(-c4ccccc4)ccn3c2Nc2ccc(C(=O)O)cc2)cc1,"TDP1 (Homo sapiens, UniProt Q9NUW8)",enzyme activity,inhibitor,,100 µM,34.5% and 44.8% and 23.5%
CCN(O)N=Nc1ccc(S(=O)(=O)Nc2cc(C)on2)cc1,AMY2,enzyme activity,inhibitor,,300 µg/mL,68.4%
